{"data": "Measured values pooled from the literature", "note": "Every numbered part comes from another study and shows a few of its results, in no order.", "sequence of UniProt P00519 (whole entry, unmodified, looked up)": "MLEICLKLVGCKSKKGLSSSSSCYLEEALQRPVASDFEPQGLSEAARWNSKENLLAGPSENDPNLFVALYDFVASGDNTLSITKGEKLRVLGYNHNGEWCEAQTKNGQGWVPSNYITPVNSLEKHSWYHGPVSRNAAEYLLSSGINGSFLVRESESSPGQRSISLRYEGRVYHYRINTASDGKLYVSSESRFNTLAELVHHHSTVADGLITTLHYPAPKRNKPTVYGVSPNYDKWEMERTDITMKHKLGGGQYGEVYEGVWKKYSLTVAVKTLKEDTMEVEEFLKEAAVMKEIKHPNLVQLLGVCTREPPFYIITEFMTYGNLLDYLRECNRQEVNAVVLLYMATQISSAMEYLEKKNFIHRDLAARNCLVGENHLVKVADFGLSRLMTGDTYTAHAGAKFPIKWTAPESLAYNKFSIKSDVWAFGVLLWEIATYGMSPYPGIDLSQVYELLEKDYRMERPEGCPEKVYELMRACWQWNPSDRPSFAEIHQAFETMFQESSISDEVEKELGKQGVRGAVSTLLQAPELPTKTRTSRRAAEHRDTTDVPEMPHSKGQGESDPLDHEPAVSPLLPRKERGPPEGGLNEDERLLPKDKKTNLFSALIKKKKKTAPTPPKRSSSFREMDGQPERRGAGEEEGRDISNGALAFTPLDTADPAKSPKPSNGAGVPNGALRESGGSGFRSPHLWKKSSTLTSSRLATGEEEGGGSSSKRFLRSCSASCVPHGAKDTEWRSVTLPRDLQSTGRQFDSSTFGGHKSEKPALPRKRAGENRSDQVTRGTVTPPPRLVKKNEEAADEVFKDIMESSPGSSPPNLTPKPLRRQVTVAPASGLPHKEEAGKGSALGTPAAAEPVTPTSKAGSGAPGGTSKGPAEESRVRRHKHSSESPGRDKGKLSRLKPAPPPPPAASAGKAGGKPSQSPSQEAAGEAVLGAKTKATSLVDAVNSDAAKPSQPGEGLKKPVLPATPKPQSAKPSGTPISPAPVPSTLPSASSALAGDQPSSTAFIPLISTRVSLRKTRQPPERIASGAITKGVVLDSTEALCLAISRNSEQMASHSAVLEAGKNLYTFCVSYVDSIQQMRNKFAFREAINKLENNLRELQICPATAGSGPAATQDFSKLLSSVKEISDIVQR", "sequence of UniProt P37173 (whole entry, looked up)": "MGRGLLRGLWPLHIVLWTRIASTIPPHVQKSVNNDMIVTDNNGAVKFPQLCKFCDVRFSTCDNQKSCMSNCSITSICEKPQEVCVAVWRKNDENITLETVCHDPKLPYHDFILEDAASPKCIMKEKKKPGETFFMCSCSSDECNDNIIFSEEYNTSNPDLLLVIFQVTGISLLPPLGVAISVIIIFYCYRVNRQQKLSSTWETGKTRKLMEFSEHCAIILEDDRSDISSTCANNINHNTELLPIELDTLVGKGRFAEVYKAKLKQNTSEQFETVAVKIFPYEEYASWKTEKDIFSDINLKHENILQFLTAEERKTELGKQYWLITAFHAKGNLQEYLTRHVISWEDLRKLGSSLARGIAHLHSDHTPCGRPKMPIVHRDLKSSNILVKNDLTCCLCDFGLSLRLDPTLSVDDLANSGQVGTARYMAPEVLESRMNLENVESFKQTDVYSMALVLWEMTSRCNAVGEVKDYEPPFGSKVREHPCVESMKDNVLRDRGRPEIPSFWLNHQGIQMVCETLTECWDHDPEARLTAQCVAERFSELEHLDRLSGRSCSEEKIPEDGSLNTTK", "sequence of UniProt O96017 (whole entry, looked up)": "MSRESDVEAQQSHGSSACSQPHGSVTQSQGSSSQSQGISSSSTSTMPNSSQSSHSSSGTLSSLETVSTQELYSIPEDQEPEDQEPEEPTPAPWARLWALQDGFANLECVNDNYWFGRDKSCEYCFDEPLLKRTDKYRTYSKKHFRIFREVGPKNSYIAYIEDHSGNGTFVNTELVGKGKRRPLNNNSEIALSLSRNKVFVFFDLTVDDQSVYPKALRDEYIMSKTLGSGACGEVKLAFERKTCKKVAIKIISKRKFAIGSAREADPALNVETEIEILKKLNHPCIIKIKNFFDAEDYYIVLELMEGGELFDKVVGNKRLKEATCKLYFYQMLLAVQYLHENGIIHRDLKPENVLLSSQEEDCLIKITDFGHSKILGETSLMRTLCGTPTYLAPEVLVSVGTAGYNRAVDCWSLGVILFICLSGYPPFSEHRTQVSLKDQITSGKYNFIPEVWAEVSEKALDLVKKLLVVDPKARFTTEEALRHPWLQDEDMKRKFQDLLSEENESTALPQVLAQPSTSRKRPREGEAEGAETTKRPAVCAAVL", "sequence of UniProt O94804 (whole entry, looked up)": "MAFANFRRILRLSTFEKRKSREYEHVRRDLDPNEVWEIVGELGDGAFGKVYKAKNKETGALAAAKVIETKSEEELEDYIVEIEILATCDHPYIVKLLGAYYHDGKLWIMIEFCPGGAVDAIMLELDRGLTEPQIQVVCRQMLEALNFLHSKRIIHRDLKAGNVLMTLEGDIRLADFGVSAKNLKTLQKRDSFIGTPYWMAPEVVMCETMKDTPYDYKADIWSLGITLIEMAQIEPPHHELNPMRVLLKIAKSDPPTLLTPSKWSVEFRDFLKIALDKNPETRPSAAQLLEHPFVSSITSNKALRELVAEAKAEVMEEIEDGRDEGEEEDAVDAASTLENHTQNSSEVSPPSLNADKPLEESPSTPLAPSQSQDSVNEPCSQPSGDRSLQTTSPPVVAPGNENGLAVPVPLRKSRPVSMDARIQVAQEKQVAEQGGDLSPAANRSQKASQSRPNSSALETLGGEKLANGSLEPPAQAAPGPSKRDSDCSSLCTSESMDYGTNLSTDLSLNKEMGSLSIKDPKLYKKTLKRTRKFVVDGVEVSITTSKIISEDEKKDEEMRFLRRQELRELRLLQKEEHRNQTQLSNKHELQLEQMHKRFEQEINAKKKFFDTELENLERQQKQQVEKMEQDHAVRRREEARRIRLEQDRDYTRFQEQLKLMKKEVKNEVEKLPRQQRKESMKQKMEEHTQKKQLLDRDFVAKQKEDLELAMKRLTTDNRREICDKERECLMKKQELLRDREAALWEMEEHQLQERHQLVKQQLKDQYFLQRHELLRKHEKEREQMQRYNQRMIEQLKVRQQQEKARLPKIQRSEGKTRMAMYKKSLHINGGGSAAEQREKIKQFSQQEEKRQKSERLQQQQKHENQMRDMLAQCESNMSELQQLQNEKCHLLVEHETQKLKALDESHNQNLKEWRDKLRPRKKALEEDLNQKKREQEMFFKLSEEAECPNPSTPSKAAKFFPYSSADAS", "sequence of UniProt Q13976 (whole entry, looked up)": "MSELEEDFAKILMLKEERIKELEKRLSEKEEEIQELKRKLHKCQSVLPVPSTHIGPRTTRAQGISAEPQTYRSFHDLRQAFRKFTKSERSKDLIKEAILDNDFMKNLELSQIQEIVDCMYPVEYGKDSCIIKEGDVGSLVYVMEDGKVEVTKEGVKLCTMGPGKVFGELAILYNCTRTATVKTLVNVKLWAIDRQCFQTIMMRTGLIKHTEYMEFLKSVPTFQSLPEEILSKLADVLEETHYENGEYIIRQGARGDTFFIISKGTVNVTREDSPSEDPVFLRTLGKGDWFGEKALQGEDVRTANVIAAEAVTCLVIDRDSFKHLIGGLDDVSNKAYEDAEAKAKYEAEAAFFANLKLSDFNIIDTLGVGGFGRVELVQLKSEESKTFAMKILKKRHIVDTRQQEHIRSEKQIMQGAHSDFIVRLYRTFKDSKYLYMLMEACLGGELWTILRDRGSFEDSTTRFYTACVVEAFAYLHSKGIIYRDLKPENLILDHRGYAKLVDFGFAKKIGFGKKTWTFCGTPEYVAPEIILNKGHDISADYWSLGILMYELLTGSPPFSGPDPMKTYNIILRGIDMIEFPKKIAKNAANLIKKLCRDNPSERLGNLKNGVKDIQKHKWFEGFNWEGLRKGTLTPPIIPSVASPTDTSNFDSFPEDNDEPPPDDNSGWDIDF", "sequence of UniProt P51955 (whole entry, looked up)": "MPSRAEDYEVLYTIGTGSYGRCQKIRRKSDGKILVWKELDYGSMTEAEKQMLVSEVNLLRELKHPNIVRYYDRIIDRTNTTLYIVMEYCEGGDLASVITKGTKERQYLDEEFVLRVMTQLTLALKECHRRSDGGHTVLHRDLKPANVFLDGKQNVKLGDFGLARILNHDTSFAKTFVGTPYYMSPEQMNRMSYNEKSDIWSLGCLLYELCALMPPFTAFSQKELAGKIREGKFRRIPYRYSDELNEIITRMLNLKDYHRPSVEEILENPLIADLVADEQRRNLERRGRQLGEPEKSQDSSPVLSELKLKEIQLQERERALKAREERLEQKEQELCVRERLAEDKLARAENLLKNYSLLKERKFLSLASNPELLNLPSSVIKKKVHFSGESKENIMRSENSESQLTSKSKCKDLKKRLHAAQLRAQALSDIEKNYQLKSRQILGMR", "sequence of UniProt Q9UIK4 (whole entry, looked up)": "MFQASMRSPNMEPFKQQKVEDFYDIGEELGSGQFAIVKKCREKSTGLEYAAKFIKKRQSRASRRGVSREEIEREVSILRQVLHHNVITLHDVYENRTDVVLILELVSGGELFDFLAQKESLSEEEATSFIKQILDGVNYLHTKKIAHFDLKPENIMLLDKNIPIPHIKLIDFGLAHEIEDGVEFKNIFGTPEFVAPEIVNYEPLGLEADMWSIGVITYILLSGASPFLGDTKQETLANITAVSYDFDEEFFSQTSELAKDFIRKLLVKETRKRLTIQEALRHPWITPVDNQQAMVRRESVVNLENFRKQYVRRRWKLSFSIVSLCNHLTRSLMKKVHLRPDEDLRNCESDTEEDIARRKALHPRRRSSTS"}
{"data": "Set 1", "target": "Histone acetyltransferase KAT6A, winged helix 2, GST fusion (KAT6A, Homo sapiens, UniProt Q92794, residues 85-181)", "technique": "protein binding microarray", "molecule type": "double-stranded DNA, one strand shown", "matrix": "in vitro", "concentration": "not given", "setting": "8-mer, flanks averaged, mean of 2 arrays, mostly near background", "relative to": "not given", "reading": "higher = stronger binding", "Residues (chain)": "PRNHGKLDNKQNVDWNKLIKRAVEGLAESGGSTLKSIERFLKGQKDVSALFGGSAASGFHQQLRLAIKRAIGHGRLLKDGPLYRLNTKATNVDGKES"}
{"Oligonucleotide": "CAATGTGC", "E-score": -0.0647}
{"Oligonucleotide": "ACTCTTTC", "E-score": -0.122}
{"Oligonucleotide": "CCGGTCGC", "E-score": 0.202}
{"Oligonucleotide": "CAAGACAC", "E-score": 0.131}
{"Oligonucleotide": "AATAAACA", "E-score": 0.0731}
{"Oligonucleotide": "CCCAATAG", "E-score": -0.138}
{"Oligonucleotide": "GGCACCAA", "E-score": 0.0665}
{"Oligonucleotide": "AGTATTAT", "E-score": -0.101}
{"data": "Set 2", "Compound": "COc1ccc(S(=O)(=O)N(CCO)c2ccccc2CN(C)CC=Cc2ccc(Cl)cc2)cc1", "read-out": "enzyme activity", "action": "inhibitor", "concentration": "0.5 µM", "relative to": "control"}
{"target": "STK10 (Homo sapiens, UniProt O94804)", "remaining activity": "99.4%"}
{"target": "DAPK1 (Homo sapiens, UniProt P53355)", "remaining activity": "120%"}
{"target": "DAPK2 (Homo sapiens, UniProt Q9UIK4)", "remaining activity": "107%"}
{"target": "STK11 (Homo sapiens, UniProt Q15831)", "remaining activity": "97.7%"}
{"target": "IKBKB (Homo sapiens, UniProt O14920)", "remaining activity": "98.1%"}
{"target": "NEK2 (Homo sapiens, UniProt P51955)", "remaining activity": "86.6%"}
{"target": "Tyrosine-protein kinase Lyn, isoform B (LYN, Homo sapiens, UniProt P07948)", "remaining activity": "92.3%"}
{"target": "TGFBR2 (Homo sapiens, UniProt P37173)", "remaining activity": "97.2%"}
{"target": "cGMP-dependent protein kinase 1, isoform beta (PRKG1, Homo sapiens, UniProt Q13976)", "remaining activity": "93.2%"}
{"target": "CHEK2 (Homo sapiens, UniProt O96017)", "remaining activity": "101%"}
{"data": "Set 3", "target": "Centromere-binding protein 1, full length, N-terminal tag (CBF1, Saccharomyces cerevisiae, UniProt P17106, residues 1-351)", "technique": "protein-binding microarray", "molecule type": "double-stranded DNA, one strand shown", "matrix": "in vitro", "concentration": "0.8 µM", "setting": "whole 60-bp probe, no competitor", "reading": "higher = stronger binding", "all sequences stand within": "… GTCTTGATTCGCTTGACGCTGCTG", "sequence of UniProt P17106 (whole entry, looked up)": "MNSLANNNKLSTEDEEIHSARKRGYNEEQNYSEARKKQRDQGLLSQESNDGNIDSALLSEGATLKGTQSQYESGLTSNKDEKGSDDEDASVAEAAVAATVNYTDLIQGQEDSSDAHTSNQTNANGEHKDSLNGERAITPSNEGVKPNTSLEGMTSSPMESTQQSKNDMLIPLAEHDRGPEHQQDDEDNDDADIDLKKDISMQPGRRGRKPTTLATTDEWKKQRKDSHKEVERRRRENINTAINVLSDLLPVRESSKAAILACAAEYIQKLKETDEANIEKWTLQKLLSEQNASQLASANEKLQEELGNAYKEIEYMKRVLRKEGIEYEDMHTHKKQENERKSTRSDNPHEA"}
{"Oligonucleotide": "CTAATTGTCATTTAACACGGGGATGAGCTTCTTTTC", "fluorescence intensity [a.u.]": 604}
{"Oligonucleotide": "CTATTTATACACTATCACGCACATTAGGGTTCTTTC", "fluorescence intensity [a.u.]": 619}
{"Oligonucleotide": "CTATTCGTGGATGGTCATGCGTATTTAAAAACATTC", "fluorescence intensity [a.u.]": 1130}
{"Oligonucleotide": "GAATTAATTCATGATCACGCTCTAATTTGTGCATAG", "fluorescence intensity [a.u.]": 2160}
{"Oligonucleotide": "GAAAGAAGCAATGGTGGTGTCTGTTCATTGCGATAG", "fluorescence intensity [a.u.]": 522}
{"Oligonucleotide": "CTATTTGTTTCGTACTTCGTGACTGTTTGGCATTTC", "fluorescence intensity [a.u.]": 654}
{"Oligonucleotide": "GAAGTTTCAATAGCGCACGCACTTATACGCCACTAG", "fluorescence intensity [a.u.]": 532}
{"Oligonucleotide": "GAACATTACTATTTTCATCAGGGCCAACAAAAATAG", "fluorescence intensity [a.u.]": 546}
{"data": "Other studies, line by line"}
{"SMILES": "CNC(=O)Nc1ccc2c(c1)C1(CC2)OC(=O)N(CC(=O)N(Cc2ccc(F)cc2)[C@@H](C)C(F)(F)F)C1=O (single isomer, unassigned)", "target": "Tyrosine-protein kinase ABL1 (ABL1, Homo sapiens, UniProt P00519, E255K)", "test": "KINOMEscan", "setting": "1 µM, E255K mutant, phosphorylated", "how to read": "relative to: control", "quantity": "remaining binding", "value": "100%"}
{"note": "Repeated from above (set 2):"}
{"target": "cGMP-dependent protein kinase 1, isoform beta (PRKG1, Homo sapiens, UniProt Q13976)", "remaining activity": "93.2%"}
{"target": "CHEK2 (Homo sapiens, UniProt O96017)", "remaining activity": "101%"}
{"target": "TGFBR2 (Homo sapiens, UniProt P37173)", "remaining activity": "97.2%"}
{"target": "DAPK2 (Homo sapiens, UniProt Q9UIK4)", "remaining activity": "107%"}
